Measured values pooled from the literature.
A part holds a random share of what one study measured.

Block 1 — technique: protein binding microarray; molecule type: double-stranded DNA, one strand shown; sample: in vitro; concentration: not given; baseline: not given; reading: higher = stronger binding
Target: Histone acetyltransferase KAT6A, winged helix 1, GST fusion (KAT6A, Homo sapiens, UniProt Q92794, residues 1-85)
Notes: 8-mer, flanks averaged, mean of 2 arrays, mostly near background
Target sequence (chain): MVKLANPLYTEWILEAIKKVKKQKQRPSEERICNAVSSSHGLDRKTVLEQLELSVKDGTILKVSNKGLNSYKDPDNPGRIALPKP
Oligonucleotide	E-score
GGGAGTCA	-0.0503
CCTATCCA	-0.244
ACCGACGC	0.418
ATTGTGGG	-0.223
CAGGACCG	0.0277
AAGCCCAG	-0.243
CGCAATGA	0.0547
GTAGATAC	-0.0678
CTACTACC	0.147
CTTATCTC	-0.193
CCAGTGTA	-0.0983
GATGTGGC	-0.0368
GAATCGCC	0.215
AGTAGAAT	-0.184
GGGTGACC	0.136
CTTAATGA	-0.106
CTCACCCA	-0.208
ATTGTAAA	-0.237
ATTCCGCA	-0.0568

Block 2 — technique: RNA Bind-n-Seq; molecule type: RNA; sample: in vitro; concentration: 365 nM; baseline: no-protein control; reading: higher = stronger binding
Target: RNA binding protein fox-1 homolog 2, RRM domain, GST-SBP tag (RBFOX2, Homo sapiens, UniProt O43251-10, residues 100-194)
Notes: natural RNA segment, single round, ends assumed
Constant ends, left off below: GGGAGUUCUACAGUCCGACGAUC … UGGAAUUCUCGGGUGCCAA
Residues (chain): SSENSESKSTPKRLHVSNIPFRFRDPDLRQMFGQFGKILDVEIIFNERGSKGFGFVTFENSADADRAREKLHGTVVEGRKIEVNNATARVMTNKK
Oligonucleotide	RBNS enrichment (R)
UGUUGGUGAACAAAUGGCCUUUAUUAAGAAAUGGCUGGCUCAGGGUAAGGUCCGAUUCCUACCAGGAAGUGCUUGCUGCUUCUUUGAUUAUGACUGGUUUGGGGUGGGGG	0.457
AGAUUUACCUUUUCUGUUGUACGUAAAGCUUAAAUUGCUUUUGUUGUGACUUUUUAGCCAGUGACUUUUUCUGAGCUUUUCAUGGAAGUGGCAGUGAAAAAUAUGUUGAG	0.398
UUGAGCACCGGGCCCUGCUCCUCACCUACACUCCCCUUCAAGGAUGCUAUUUAUAUUUGUAUUUAUUAAUAUUAUUAAUUUAUUGGGGUCGGGCUGGGUGGAUGGAUUGU	1.08
ACAAGGUCCUUGUGCAGGAGUCCCCAGAGACCUAGCUGCAGCUCAGGCCGACUGAAGCAGGCCUGGGGGUCUGUCGAGCAUUCCACAGCCUGCACAACACGGACUCAGCC	0.267
AGUAGGAUGAGGCCUGUAUUACCGAAGUCUGGGAGCAUAAUUGAACUUGGUCUUCUGUGUUCUAGAGAACAGCACUGCUCUGACAAGUGAAUUCUUGAUAAAUGGCUAAU	0.319
CCAGCCUCAGAUCCUGUCUUUAGCAACCAGCUAAUAUUUACCCAGAGGUACUGCAAUAGAGUAUUUCAAAAUGGAAUCAGGAUCUGGUGGGCCUCAGAAAUUGUCUCUUU	0.36
UCACUCCAUCCUGCACUUUACCCACAGGACACCUGGAGGGUCCCCCAGCCCUGCUUGCUUUUGUGAACGUCGUGUGAGUACACCGAGGUGUUGCAGCUUUCCUUCCCUCU	0.494
GUCUCACAGUGGGAUUGUGGUUGUCUGAGGACACUUUGGGGGGUCGCUGUCCAAGAAGUGGCUCCCCAAAGUAUAAGUGCGGGUGAGGUUUACUGAUACCCCACAGUGGA	0.468
AAAGGUCUUUUAUGGGGAAGAAAGUAAAUGUAUGAAAUAAUAAAUGUGUGACAUUUAUAGGGAAUGUUGGCUCUGAACAAACUUUUGAAAACUUGGUUGACAAAAUUUUG	8.28
GUCAAGUCAGCCAGAGGAAAGAGGUCGAGUUGACAGCAGCAGGCACUGCCCUUCCUAGUUGGUGGCUGCCAUGUUGGACUGUGGAUCUAAACACUUCUAGAGCUUUGUGG	0.924
CUGUGCCAUACUAUUGUUAAAAUGAACUGUUGCUAUUGUGAGAUGGAUUUCCUUUCGAAUGGCACUACCUUAGGGACAUUCUAGUAUUGCUUCUAUUGUUUGGGCAUUGU	0.231
UGUCACUGAAUGAACCUUAUCGGGCAUAACUACAUGAAAAUGCAGUGACAGCUGAGUGUGCUGUGUCUCACACUAUCACCCGUCAUCAGGAUGUCUCUCCUUCCUUACUG	0.289

Block 3 — technique: protein-binding microarray; molecule type: double-stranded DNA, one strand shown; sample: in vitro; concentration: 940 nM top; notes: 60-bp whole probe; together with: salmon DNA 0.4 mg/ml; baseline: random background probes; reading: higher = stronger binding; constant ends, left off below: GCCTAGCAC … GTCTTGATTCGCTTGACGCTGCTG
Target: Interferon regulatory factor 5, full length, phosphomimetic (IRF5, Homo sapiens, UniProt Q13568-2, residues 1-514, S451D/S453D/S456D/S462D)
Oligonucleotide	fitted relative affinity
TTAGACCTGGGGACTGGATTAGTGCTA	0.0481 z-score
GACGGTCTCGGACTGGGGAAGTGCTAG	0.726 z-score
GACGGTTTCGACTTTCGGGGCGTGCTA	7.83 z-score
TTAGAACTGAGACTTGATTAGTGCTAG	-0.103 z-score
TTAGGCCTCGGACTGGGTTAGTGCTAG	-0.631 z-score
GACGGTATCGGGATTGGGGACGTGCTA	3.43 z-score
GACGGTTTCCTGTCCCTGACGTGCTAG	0.902 z-score
TTAGGACTGGGGTATCGGTCAGTGCTA	1.93 z-score
TAAGAACTGAGTATCGATTAGTGCTAG	4.46 z-score
TTAGGTCTCCTTTGCCTTTAGTGCTAG	0.263 z-score
GACGGACAGGGTTTCGGGACGTGCTAG	1.65 z-score
GACGGTTTCGACTATCGGTACGTGCTA	8.36 z-score
TTAGGTATCGGGCTGGGTTAGTGCTAG	4.25 z-score
CAAGGAACTCAGAGATTTAAGTGCTAG	0.0996 z-score
CATTGCCTATTTTTCCCCTGGTGCTAG	1.43 z-score
CTTTGACTCTTTCTGTCAGTGTGCTAG	0.71 z-score
TTAGGACTGGGGACTGGTTTAGTGCTA	-0.26 z-score
TTAGATTTCAGTTGCGATTAGTGCTAG	1.53 z-score
CCCGCTTTTTTTTTTTTTTTGTGCTAG	0.9 z-score
AATGAGGCACTGAGAGCAGAGTGCTAG	-0.72 z-score

Block 4 — technique: RNA Bind-n-Seq; molecule type: RNA; sample: in vitro; concentration: not given; baseline: input RNA pool; reading: higher = stronger binding
Target: RING finger protein unkempt homolog, zinc fingers 1-6, GST-SBP tag (UNK, Homo sapiens, UniProt Q9C0B0, residues 30-357)
Sequence of UniProt Q9C0B0 (30-357, looked up): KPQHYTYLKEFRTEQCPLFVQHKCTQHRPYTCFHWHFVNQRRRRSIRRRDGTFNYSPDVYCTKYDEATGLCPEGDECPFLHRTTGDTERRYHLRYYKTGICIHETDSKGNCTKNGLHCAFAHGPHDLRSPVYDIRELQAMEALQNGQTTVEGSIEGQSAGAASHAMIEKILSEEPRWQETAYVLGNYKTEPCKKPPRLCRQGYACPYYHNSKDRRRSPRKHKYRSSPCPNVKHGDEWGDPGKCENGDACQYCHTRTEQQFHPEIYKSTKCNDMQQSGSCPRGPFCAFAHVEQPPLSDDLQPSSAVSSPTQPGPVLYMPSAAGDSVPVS
Notes: RNA with constant flanks, human-mouse chimeric sites, ends assumed
Constant ends, left off below: GGGAGUUCUACAGUCCGACGAUC … CAACAGAGGAUUGAGCAUCA
Oligonucleotide	bound/input enrichment [ratio]
UGUGAACUGUCUCUUGAGAUCUAAAAACAAGAUGACUUUUCCUGGCACAUAUUCCAAAGCAAAGACUUUGUUACCUGCUGCUUAUUGUCUAAUUUACAGGGAUAUUUAAUUUUGUAAGGU	0.169
UCUGGCCACACUCGUGUGUAUGGUGUUUGCUUUGUUGACACUUCACUGGGCAAGUUUUUCAUCGGCCAGUUUUCGGAUGACCGCCACUGUUCCAGAUUUAGGACGCUAGUGGCUCACUAU	0.183
AGAUUCCCCCUCCUGAGACCUCCUCCGAAGUUGGAGUCUCUUACAGAUGCCUCAUCCCCUGUUAGCGUUUUAGUUUGGACCACCCAGCCUUGGACAAUUCCAGCCAAUGAAGCUGUUUGC	1.05
UGUAGUUUCGCGGUUCAGGCUUUGUGUUGUAUUUACUUACGGUAUUAAAUUAUUAUUCUGCUUAGCUUAUAAUAAGGAUAAUUGCAUUUAAAGAGGUUACUGAAUGUUACUCUGAAACUU	0.263
UAAGUCCUGUGCCAGCACUUCGCUCAUAAAGUUUUAAAUUCUGGACCAAUUGUGUUUGUUUCCUGAUUUUUGUAUUCAAUACUUUGCCUAGUAUGUAACUCACUCUUACUGAUAAUAAAA	0.717
UUUGUAUUUAUGCUAAGCACACGUGCUGGUGGUCUGGGCAUCAAUCUUGCGACUGCUGAUGUAGUCAUUUUAUAUGAUUCUGAUUGGAAUCCGCAAGUUGAUCUUCAGGCUAUGGACCGU	0.119
GCACUUCUCAAAUACUGGCCAAAGACUCACAGUCCAAAAGAAGUAAUGUUCUUAAACGAAUUAGAAGAAAUUUUAGAUGUAAUUGAACCAUCAGAGUUUGUGAAGAUCAUGGAGCCUCUU	1.66
ACAGUUAUAUUGUUGAGUUUCAUUUUCAUAUAUUCUUGUAGUGUCUGCUUGCCUGUGACUUCUGGUAAAAUAAGACUAGCCUUUGAAAAUAUUUUAGCAUGGUAUUUUUCUAAAAAUAAA	7.78
CAGGGCACAGCACCUACCCCCUCCUCCUUUCCACACCUGCAAACUCUUUUACUUGGGCUGCAUAGUUAGUGUAAUUACAUCUCAGCUUUGAGGGCUCCUGUGGCAAAUUCCCGGAUUAAA	1.47
GUCAACAGCUGCCUCAAUCCCAUUCUCUACGCCUUCCUGGAUGAGAACUUCAAGGCCUGCUUCCGCAAGUUCUGCUGUGCAUCUGCCCUGCACCGGGACGUGCAGGUGUCUGACCGCGUG	0.445
UGUGCCCCACAAGAUCCUACCUGAGUGGCAGCUGAAGUUGACUCCCUCUCCUUGCCUGAACCCCCCCCCACUGCCCCCCCAUCCCCCGCAGAAUUCCGAGAUGUUGCCUCUGCACGGUUC	1.32

Block 5 — technique: universal PBM; molecule type: double-stranded DNA, one strand shown; sample: in vitro; concentration: not given; reading: higher = stronger binding
Target: Sal-like protein 4, full length isoform B (SALL4, Homo sapiens, UniProt Q9UJQ4-2, residues 1-616)
Notes: 8-mer, flanks averaged, mean of replicates
Oligonucleotide	E-score
ATAACTTA	0.375
AACGTAAG	-0.0191
CTGGACAC	-0.268
AGTGTTCG	-0.0795
CATGTTGG	0.13
ACGCGACT	-0.181
AAAACTTC	0.196
CATGGCAA	-0.0166
AGAATGCT	0.0612
TAGCATGA	0.118
TAGCGAGA	-0.0408
ATTCTGGG	-0.0233
TAGAGCCA	-0.152
CTTCCGCA	-0.171
ACACACCC	-0.00225
CGTTTTAA	0.104
AAGAATTG	0.159
AAAGGGTT	-0.0493
CCGGGAGC	-0.418
ACCCGGTA	-0.136
AATAAGGA	0.15
CTCACCTC	-0.319
CTGTCAAC	-0.156
CGATGCAC	-0.189
TCCCGAGA	-0.201

Some of these lines once more (block 1):
Oligonucleotide	E-score
CTACTACC	0.147
CTTATCTC	-0.193
CCAGTGTA	-0.0983
GATGTGGC	-0.0368
GAATCGCC	0.215
AGTAGAAT	-0.184
GGGTGACC	0.136
